Experimental data pooled from the literature.
Lines come from different studies, so protocols differ.
Target: Dual specificity tyrosine-phosphorylation-regulated kinase 4 (DYRK4, Homo sapiens, UniProt Q9NR20)

SMILES = NC(=O)C[C@H]1CCc2sc3ncnc(O[C@H]4CC[C@H](N5CCOCC5)CC4)c3c21; assay = enzyme activity, inhibitor; conditions = 10 µM; measurement = inhibition; result = -1%
SMILES = Nc1ncc(-c2cc(-c3cnn(CC(F)(F)F)c3)ncc2F)nc1C(=O)NC1CNCC(F)C1 (centres unmarked); assay = enzyme activity; conditions = 1 µM; how to read = relative to: DMSO control; measurement = remaining activity; result = 107%
SMILES = CN1CCN(Cc2ccc(-c3ccc(CO[C@H]4CCC[C@@H]4NC(=O)c4cc(-c5cnn(C)c5)cnc4N)cc3)cc2)CC1; assay = enzyme activity, inhibitor; conditions = 0.1 µM; measurement = inhibition; result = 1%
SMILES = Cc1cccc(O[C@H]2CCC[C@@H](C(C)CNCc3ccncc3)C2)c1 (relative stereo); assay = enzyme activity, inhibitor; conditions = 10 µM; measurement = inhibition; result = -6%
SMILES = C=CC(=O)Nc1cccc(-c2cnc3[nH]cc(C(=O)NC(C)(C)C)c3n2)c1; assay = enzyme activity, inhibitor; conditions = 0.1 µM; measurement = inhibition; result = 4%
SMILES = C=CC(=O)N1Cc2nc(-c3cc(-c4cc(Cl)cnc4Cl)c(F)cc3F)n(-c3ccncn3)c2C1; assay = cell-free assay, inhibitor; conditions = 1 µM; measurement = inhibition; result = 2.9%
SMILES = NC(=O)[C@@H](O)C[C@H]1CCc2sc3ncnc(O[C@H]4CC[C@H](N5CCOCC5)CC4)c3c21; assay = enzyme activity, inhibitor; conditions = 10 µM; measurement = inhibition; result = -3%
SMILES = CCn1cc(C(=O)O)c(=O)c2c(N)c(F)c(NC3CCCCC3)cc21; assay = kinase activity; conditions = 0.1 µM, added: ATP at Km; measurement = inhibition; result = 4.2%
